Assay results gathered from unrelated publications.
Each numbered part is a random draw from the data of one study; scales do not carry over between parts. Changes are numbered by the printed parent chain.

Block 1
Target: Interferon regulatory factor 5, full length, phosphomimetic (IRF5, Homo sapiens, UniProt Q13568-2, residues 1-514, K96S/S451D/S453D/S456D/S462D)
Method: protein-binding microarray
Form: double-stranded DNA, one strand shown
Medium: in vitro
Concentration: 250 nM
Setting: 60-bp whole probe
Together with: salmon DNA 0.4 mg/ml
Relative to: random background probes
Reading: higher = stronger binding
Shared flanks, not repeated: GCCTAGCAC … GTCTTGATTCGCTTGACGCTGCTG
`GACGGACTGGAATATCGGGACGTGCTA` gave a log fluorescence of 0.251 z-score.
For `GACGAACGGAGTATCGAGACGTGCTAG`, the log fluorescence was 1.23 z-score.
`TTAGATATCGGGTATCGGTTAGTGCTA` gave a log fluorescence of 6.26 z-score.
`GACGGACTGGACTTTCGCGACGTGCTA` has a log fluorescence of 0.634 z-score.
With `TTAGATCTCAGACTGGATTAGTGCTAG` the log fluorescence was 0.0101 z-score.
`TCACTTTTTGCACTCTCACTGTGCTAG` has a log fluorescence of 1.2 z-score.
`GACGGTCTCCTTCTCCTGATGTGCTAG` gave a log fluorescence of 0.0157 z-score.

Block 2
Target: CCNB3, cyclin fold, Cln2 fusion (human)
Method: yeast growth competition, sequencing
Medium: yeast
Setting: weak parent motif
Relative to: not given
Reading: higher = stronger binding
Parent: RB1 docking peptide (human); PKPLKKLRFDIEG
`PKPLKKLRFCIEG [D10C]`: “normalised enrichment score” -0.105.
`PKPLKKLRFDDEG [I11D]` — result for “normalised enrichment score”: -0.0916.
`PKPLKKLRFNIEG [D10N]` — result for “normalised enrichment score”: 0.427.
`PYPLKKLRFDIEG [K2Y]` — result for “normalised enrichment score”: 0.907.
`PKPLKKLRFDIEC [G13C]` — result for “normalised enrichment score”: 0.279.
Under “normalised enrichment score”, `PKKLKKLRFDIEG [P3K]` is recorded as -0.134.
Under “normalised enrichment score”, `PKPLKKLRFDQEG [I11Q]` is recorded as -0.188.
Under “normalised enrichment score”, `PKCLKKLRFDIEG [P3C]` is recorded as 0.521.
Under “normalised enrichment score”, `PKPLKKLRDDIEG [F9D]` is recorded as 0.0592.
`PKPTKKLRFDIEG [L4T]`: “normalised enrichment score” -0.226.

Block 3
Target: Sal-like protein 4, full length isoform B (SALL4, Homo sapiens, UniProt Q9UJQ4-2, residues 1-616)
Method: universal PBM
Form: double-stranded DNA, one strand shown
Medium: in vitro
Concentration: not given
Setting: 8-mer, flanks averaged, mean of replicates
Reading: higher = stronger binding
The E-score of `AACCAGCT` is reported as -0.0542.
The E-score of `CCCAAGCC` is reported as -0.31.
The E-score of `AAAATGAT` is reported as 0.347.
`CCAACCTA` gave an E-score of 0.01.
`AATGCTCG` has an E-score of 0.113.
`ACTTCACT` gave an E-score of 0.0746.
The E-score of `CCCGCAGC` is reported as -0.35.
`GCACCCAC` gave an E-score of -0.277.
With `GGACCAAC` the E-score was -0.232.

Mixed results
For `PhoQ, residues 284 288 289 292 302 303 SVTLVV`, the fold induction was 1.38 (PhoP, residues 12 14 15 18 19 NHFRA (Escherichia coli, UniProt P23836); Sort-seq, measured: YFP reporter; E. coli; PhoQ-PhoP variant library, together with: 10 µM Mg2+; relative to: high Mg2+ state, higher = stronger signaling).

A few entries again (block 1):
`GACGGTCTCCTTCTCCTGATGTGCTAG` gave a log fluorescence of 0.0157 z-score.
For `GACGAACGGAGTATCGAGACGTGCTAG`, the log fluorescence was 1.23 z-score.
